Published values pooled from the literature.
Compare with care: the assays were run in different laboratories. ± gives the spread as reported.
metK 1-426: metK 1-426 (Sinorhizobium meliloti, UniProt Q92SI4)
CD3E 23-207: CD3E 23-207 (Homo sapiens, UniProt P07766)
UniProt P07766, sequence (whole entry, looked up): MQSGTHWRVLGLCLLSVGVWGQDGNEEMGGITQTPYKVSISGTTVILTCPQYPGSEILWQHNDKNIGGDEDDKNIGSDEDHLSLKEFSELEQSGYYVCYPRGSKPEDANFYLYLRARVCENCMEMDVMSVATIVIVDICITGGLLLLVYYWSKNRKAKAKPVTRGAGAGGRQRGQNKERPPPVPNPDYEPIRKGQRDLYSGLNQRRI
CEBPB: CEBPB 269-344 (Homo sapiens, UniProt P17676)
UniProt P17676, sequence (whole entry, looked up): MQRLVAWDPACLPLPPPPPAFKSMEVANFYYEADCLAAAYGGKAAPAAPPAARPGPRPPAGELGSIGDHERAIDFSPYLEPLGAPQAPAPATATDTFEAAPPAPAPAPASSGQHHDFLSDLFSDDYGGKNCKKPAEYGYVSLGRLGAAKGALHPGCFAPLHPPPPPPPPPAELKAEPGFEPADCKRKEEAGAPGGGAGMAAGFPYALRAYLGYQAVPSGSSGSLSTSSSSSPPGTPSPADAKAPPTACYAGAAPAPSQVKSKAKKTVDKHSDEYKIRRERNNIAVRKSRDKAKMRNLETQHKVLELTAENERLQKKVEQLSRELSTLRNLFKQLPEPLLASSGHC
UniProt P07271, sequence (whole entry, looked up): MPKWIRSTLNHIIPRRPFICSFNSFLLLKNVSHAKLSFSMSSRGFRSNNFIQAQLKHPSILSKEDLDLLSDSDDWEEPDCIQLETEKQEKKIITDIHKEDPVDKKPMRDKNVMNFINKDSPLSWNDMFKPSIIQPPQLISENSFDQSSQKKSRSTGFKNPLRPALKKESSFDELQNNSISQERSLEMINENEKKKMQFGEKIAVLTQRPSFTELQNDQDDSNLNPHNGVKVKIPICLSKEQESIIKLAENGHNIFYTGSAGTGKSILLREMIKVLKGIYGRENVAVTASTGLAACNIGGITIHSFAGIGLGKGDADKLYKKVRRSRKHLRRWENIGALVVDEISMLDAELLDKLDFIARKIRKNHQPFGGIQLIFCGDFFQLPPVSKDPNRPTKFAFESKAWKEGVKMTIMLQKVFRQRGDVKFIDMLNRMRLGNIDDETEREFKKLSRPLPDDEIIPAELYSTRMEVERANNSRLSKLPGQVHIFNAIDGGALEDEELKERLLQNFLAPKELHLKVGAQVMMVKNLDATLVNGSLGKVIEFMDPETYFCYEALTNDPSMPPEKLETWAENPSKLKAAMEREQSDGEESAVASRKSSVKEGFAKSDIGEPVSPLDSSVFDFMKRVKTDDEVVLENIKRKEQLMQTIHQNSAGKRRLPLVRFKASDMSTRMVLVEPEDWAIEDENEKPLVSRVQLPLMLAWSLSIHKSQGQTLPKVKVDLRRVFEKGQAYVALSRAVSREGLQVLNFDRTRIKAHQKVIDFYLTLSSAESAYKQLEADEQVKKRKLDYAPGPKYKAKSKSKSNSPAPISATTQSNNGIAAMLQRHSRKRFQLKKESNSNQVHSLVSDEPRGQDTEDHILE
UniProt O60656, sequence (whole entry, looked up): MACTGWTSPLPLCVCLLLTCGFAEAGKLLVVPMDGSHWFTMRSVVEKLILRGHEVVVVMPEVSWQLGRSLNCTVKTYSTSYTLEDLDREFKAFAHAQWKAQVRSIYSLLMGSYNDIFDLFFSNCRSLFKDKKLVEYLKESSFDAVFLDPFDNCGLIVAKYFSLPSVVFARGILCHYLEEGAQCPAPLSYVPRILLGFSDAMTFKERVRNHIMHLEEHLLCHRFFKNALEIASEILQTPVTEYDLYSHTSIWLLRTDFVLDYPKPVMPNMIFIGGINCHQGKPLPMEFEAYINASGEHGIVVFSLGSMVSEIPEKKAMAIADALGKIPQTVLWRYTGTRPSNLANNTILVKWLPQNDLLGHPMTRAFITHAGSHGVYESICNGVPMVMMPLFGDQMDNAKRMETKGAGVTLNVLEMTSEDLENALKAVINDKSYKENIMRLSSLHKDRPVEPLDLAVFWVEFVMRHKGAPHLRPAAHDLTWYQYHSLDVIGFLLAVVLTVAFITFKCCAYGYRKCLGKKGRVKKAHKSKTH
UniProt O13988, sequence (whole entry, looked up): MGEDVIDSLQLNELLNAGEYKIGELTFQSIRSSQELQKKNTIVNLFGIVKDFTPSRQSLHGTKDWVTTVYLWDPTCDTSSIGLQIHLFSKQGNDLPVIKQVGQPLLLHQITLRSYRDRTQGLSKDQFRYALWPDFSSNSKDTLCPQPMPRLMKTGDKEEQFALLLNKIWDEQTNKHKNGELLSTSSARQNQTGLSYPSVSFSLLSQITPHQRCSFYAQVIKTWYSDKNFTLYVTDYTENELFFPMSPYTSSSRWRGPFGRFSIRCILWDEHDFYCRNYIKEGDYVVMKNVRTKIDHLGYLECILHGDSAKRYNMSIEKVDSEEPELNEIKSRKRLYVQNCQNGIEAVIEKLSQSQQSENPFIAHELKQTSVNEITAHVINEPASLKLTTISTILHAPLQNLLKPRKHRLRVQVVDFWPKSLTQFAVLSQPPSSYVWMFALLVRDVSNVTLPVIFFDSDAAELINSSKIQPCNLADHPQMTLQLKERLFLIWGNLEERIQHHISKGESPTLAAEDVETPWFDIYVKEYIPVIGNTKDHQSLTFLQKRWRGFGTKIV

Substance | tested on | test | test system | setting | endpoint | value
UAGUUUAGUUUAGUUUAGUUUAGUUUAGUUUAGUUUAGUUUAGUUUAGUUUAGUU (ssRNA; single strand) | mtrB full length assumed T30V (Bacillus subtilis, UniProt P19466) | filter binding | – | – | Kd | 136 nM
UGT1A9 (Homo sapiens, UniProt O60656) | O=C(/C=C/c1ccccc1O)c1ccccc1 | steady-state kinetics | – | pH 7.4, 37 °C | Vmax/Km | 2400 µL/min/mg
GUUACCCCAUGAUGCUCAGGUCCGCCGCAUCUCCUGGGUCGUGGGGUCGGUCGGCUGGCCUCGGACUUGCGGAUUCCUCGUGCUGCAACCGGACCAGUCGAC (structured RNA) | metK 1-426 | filter binding | – | – | Kd | 6.7 nM
CATTATCCTAAACATAACTTAACTAGUTTAACTTAATTCTTCAATATACC / GGTATATTGAAGAATTAAGTTAAGCTAGTTAAGTTATGTTTAGGATAATG (dsDNA; blunt, dU at top 27, U:G mismatch) | MSH2/MSH6 (Homo sapiens) | EMSA | – | added: ADP 0.1 mM | Kd | 30.5 ± 0.6 nM
GACTACGTACTGTTACGGCTCCATCTCTACCGCAATCAGGCCAGATCTGC / GCAGATCTGGCCTGATTGCGGTAGCGATGGAGCCGTAACAGTACGTAGTC (dsDNA; blunt; fluorescein on T26; T:C mismatch) | p44/p62 (Chaetomium thermophilum) | fluorescence anisotropy | – | Mg2+ 5 mM | Kd | 1230 nM
GTCGTCNGGAGNGGGGTAGAGTGGGGNTGGGGCTATGGGGCTAGCATCGGATA (XNA; AEGIS dP at 7, 12, 27) | CD3E 23-207 | flow cytometry | Jurkat.E6 | 37 °C, apparent, not purified | Kd | 57 ± 23 nM
GAGUUGAGUUGAGUUGAGUUGAGUUGAGUUGAGUUGAGUUGAGUUGAGUUGAGUU (ssRNA; single strand) | mtrB full length assumed T30V/D39V (Bacillus subtilis, UniProt P19466) | filter binding | – | added: no tryptophan | Kd | 127 ± 5 nM
GCGGAGGCGTGTGCGCCAGCACAATTCCAAGGTGGAAACCGTGATCGCCCCCTGCACCGGAATGCAGCCCCCTTGGGCTATGCTCGGCACAGCAGACTGGTGACCGGAAGGGGCATGGGGACACCCTGGCGTGGAAGCTGGCGCGGCTGG (dsDNA (Lysobacter enzymogenes); blunt) | pilR 1-471 (Lysobacter enzymogenes, UniProt A0A5P2TY02) | MST | double-stranded DNA, one strand shown | – | Kd | 560 nM
CTGGAGTACAATTCCATTCCATTCCATTCCATTCCATTCCATTCCATTCCATTCCATTCCATTCCATTCCATTCCATTCCATTCCATTCCTAACTTTCTA (dsDNA) | F2 alpha-thrombin (Homo sapiens) | ITC | double-stranded DNA, one strand shown | pH 7.0 | Kd | 3510 nM
AGGATTGCGCAATAT (dsDNA; blunt, 5mC at CpG) | CEBPB | fluorescence polarization | double-stranded DNA, one strand shown | – | Kd | 20 ± 10 nM
GNTTACGGTTACGGT (ssDNA; deoxyinosine at 2) | pot1 1-555 (Schizosaccharomyces pombe, UniProt O13988) | EMSA | – | – | Kd | 0.0028 ± 0.0001 nM
AGGATTGCGCAATAT (dsDNA; blunt, 5mC at CpA) | CEBPB | fluorescence polarization | double-stranded DNA, one strand shown | – | Kd | 50 ± 10 nM
GGGAGGGAGGGAGAGGGA (ssRNA) | EXOSC3 fragment (Homo sapiens) | SPR | – | apparent | Kd | 2400 ± 1000 nM
AGCTGCCAGGCACCAGTGTCA / TGACACTGGTGCTTGGCAGCT (dsDNA; 21-bp, G-T mismatch, dT20 linker) | mutS fragment (Escherichia coli) | SPR | – | without BSA | Kd | 69 ± 4 nM
GTGTGTGTGGTGTGTGTGTGTGGTGTATGTATGACAAGGAAGG / CCTTCCTTGTCATACAT (DNA duplex; 17 bp, 5' overhang 26 nt) | PIF1 full length assumed (Saccharomyces cerevisiae, UniProt P07271) | single-molecule PIFE | – | added: ATP 2 mM | Kd | 4.5 nM
TGGACTGTCGTCNGGAGNGGGGTAGAGTGGGGNTGGGGCTATGGGGCTAGCATCGGATA (XNA; AEGIS dP at 13, 18, 33) | CD3E 23-207 | flow cytometry | Jurkat.E6 | 37 °C, apparent, not purified | Kd | 81 ± 29 nM
GGGUAUCGUGCGCAAUUUUUUCAGAAUCGAAAGGUUCAAAGUACAAAUAAGCAUAUAAGGAAAAGAGAGAAUGGCUAAGGGGCAAUCUUUACAAGAUCCGUUC (structured RNA) | hfq fragment (Escherichia coli) | EMSA | – | – | Kd | 2 ± 0.6 nM
GAUCGAUCGGGCAGCGCACUCCUCCUCCCAGCGCGCCCGAUACGGAUUGGCGACACUCCUCCUCCCGGUUGCCAAUCAGAUCAAGCAACGCCCGCUGGACCUCCUCCCCCAGCGGGCGUUGUU (structured RNA) | metK 1-426 | filter binding | – | – | Kd | 21.2 nM
CGGTNGATTC (ssDNA; THF abasic at position 5) | yedK 2-222 H160A (Escherichia coli, UniProt P76318) | ITC | – | – | Kd | 90 nM

Some of these lines once more:
Substance | tested on | test | test system | setting | endpoint | value
GAGUUGAGUUGAGUUGAGUUGAGUUGAGUUGAGUUGAGUUGAGUUGAGUUGAGUU (ssRNA; single strand) | mtrB full length assumed T30V/D39V (Bacillus subtilis, UniProt P19466) | filter binding | – | added: no tryptophan | Kd | 127 ± 5 nM
UGT1A9 (Homo sapiens, UniProt O60656) | O=C(/C=C/c1ccccc1O)c1ccccc1 | steady-state kinetics | – | pH 7.4, 37 °C | Vmax/Km | 2400 µL/min/mg
